Results collected from several papers.
Compare with care: the assays were run in different laboratories. ± marks the error that the study gave.

Structure (SMILES)	target	assay	test system	setting	how to read	endpoint	value
CCCC1(C)C(=O)N(c2cccc(CN3CCN(Cc4ccc(Br)cc4)CC3)c2)C1=O	Dipeptidyl peptidase 8 (Homo sapiens, UniProt Q6V1X1)	inhibitor		added: GP-AMC substrate	reference: Ki' DPP9 over Ki' DPP8	selectivity ratio	> 6
Cc1cc(NC(=O)[C@H](O)c2cc(F)cc(F)c2)ccc1-c1cnc(N)c(C(=O)NC(C)C)c1	RIOK2 (Homo sapiens, UniProt Q9BVS4)	binding, competition with immobilised ligand		10 µM		remaining binding	90%
CN(C)c1ccc(-n2cc(COC(=O)[C@@]3(C)C=C(C(=O)OC(C)(C)C)C(=O)CC3)nn2)cc1	MAPK8 (Homo sapiens, UniProt P45983)	D-peptide binding, inhibitor, FP peptide displacement		50 µM	lower is stronger displacement	fraction bound	0.526
COc1cc(-c2cn(C)c(=O)c3cnccc23)cc(OC)c1CN(C)C	Bromodomain-containing protein 3, BD1 (BRD3, Homo sapiens, UniProt Q15059)					ΔTm	0.5 °C
CCCCCC(O)/C=C/C=O (stereo not shown)	Protein canopy homolog 3 (Homo sapiens, UniProt Q9BT09)	competitive isoTOP-ABPP	proteome, soluble, MDA-MB-231	100 µM, 60 min, added: iodoacetamide probe	reference: DMSO over compound-treated, higher = stronger cysteine blockade	isoTOP-ABPP competition ratio	1.4
CC[C@H](C)[C@@H]1NC(=O)[C@H](Cc2c[nH]c3ccccc23)NC(=O)[C@H](C)NC(=O)[C@H](Cc2ccc(O)cc2)NC(=O)CNC(=O)[C@H](Cc2ccccc2)N(C)C(=O)[C@H](C)N(C)C(=O)[C@H](Cc2ccc(O)cc2)NC(=O)[C@H](C(C)C)NC(=O)[C@H](CC(C)C)NC(=O)[C@H](Cc2ccccc2)NC(=O)CSC[C@@H](C(=O)NCC(N)=O)NC1=O	STING1 (Homo sapiens, UniProt Q86WV6, H232R)	thermal stability, DSF		200 µM		ΔTm	0.29 °C
C[Si](C)(C)C[C@@H](CN)CC(=O)O	glycine receptor, rat	binding, radioligand binding		75 µM		inhibition	-7%
CCOC(=O)C(CC)(CCCSCCOCCOCCN)NC(=O)c1ccc(C2CC2)c(Cc2ccc(F)cc2)n1 (racemic)	Cnr2 (Mus musculus, UniProt P47936)	cAMP, agonist				Emax	93%
O=C1c2sc(-c3ccc(N4CCC(F)C4)nc3F)nc2CCN1c1cccnc1 (stereo not shown)	sigma receptor, non-selective (human)	radioligand binding, BioPrint binding panel		1 µM, added: agonist radioligand		inhibition	3%
CC1=C(/C=C/C(C)=C\C=C\C(C)=C\C=O)C(C)(C)CCC1	Rhodopsin (RHO, Homo sapiens, UniProt P08100, T17M)	ER retention, co-localization with calnexin	COS-7 transfected T17M	10 µM, mononucleated cells		Pearson correlation coefficient	0.456 ± 0.01
CC1(C)C[C@@H](Nc2cccc(-c3sc(C(=O)O)c(OCC(=O)O)c3Cl)c2)CCN1S(=O)(=O)Cc1cccc(NC(=O)CN2CCC(c3ccc4c(c3)oc(=O)n4C3CCC(=O)NC3=O)CC2)c1 (stereo partly shown)	PTPN2 (Homo sapiens, UniProt P17706, E41K/R35E/R43E)	degrader, bio-layer interferometry		250 nM	higher = more binding	BLI binding response	1.02 a.u.
CC(C)(C)OC(=O)NC(Cc1cccc(Cl)c1)C(=O)NCC=CS(=O)(=O)c1ccccc1 (stereo not shown)	Rhodesain (rhodesain, Trypanosoma brucei rhodesiense, UniProt Q95PM0)	inhibitor		pH 5.5, 37 °C, added: Z-Phe-Arg-AMC		kinact/Ki	95900 M⁻¹ s⁻¹
CC(C)(C(=O)N1CCC(Nc2nc3c(c(=O)[nH]2)CCCC3)CC1)c1ccc(Cl)cc1	MRGPRD, part with Gi1 (Homo sapiens, UniProt Q8TDS7)	Gi1 dissociation, agonist, BRET2			reference: wild type	Emax	89.9 ± 13.7%

A few entries again:
Structure (SMILES)	target	assay	test system	setting	how to read	endpoint	value
O=C1c2sc(-c3ccc(N4CCC(F)C4)nc3F)nc2CCN1c1cccnc1 (stereo not shown)	sigma receptor, non-selective (human)	radioligand binding, BioPrint binding panel		1 µM, added: agonist radioligand		inhibition	3%
